Measurements collected from several papers.
± gives the spread as reported.

COc1cccc(-c2n[nH]c(SCc3ccccn3)n2)c1OC
plasma concentration (Sprague-Dawley rats, both sexes; oral dietary, 100 mg/kg/day, day 90, 0 h): 5310 ng/mL

NC1(C(=O)N[C@@H](CCO)c2ccc(Cl)cc2)CCN(c2nc[nH]c3nccc2-3)CC1
incidence of Neutropenia (metastatic CRPC patients; 480 mg b.i.d., grade 3 to 4, treatment-related, added: enzalutamide 160 mg daily): 20%

Cc1ccc(O)c(-n2nc3ccccc3n2)c1
daily dermal uptake, percentile (exposure assessment; human, age 21-60 years; concentration not given, cream, 95th percentile): 2250 ng/kg body weight/day

CC(C)C[C@H](NC(=O)[C@H](CC(C)C)NC(=O)[C@H](Cc1c[nH]c2ccccc12)NC(=O)[C@H](CCC(=O)O)NC(=O)[C@@H](NC(=O)[C@H](Cc1ccccc1)NC(=O)[C@H](CCC(=O)O)NC(=O)[C@H](CCCCNC(=O)COCCOCCNC(=O)COCCOCCNC(=O)CC[C@H](NC(=O)CCCCCCCCCCCCCCCCCCC(=O)O)C(=O)O)NC(=O)[C@H](C)NC(=O)[C@H](CCCCN)NC(=O)[C@H](CCCCN)NC(=O)[C@H](CCC(=O)O)NC(=O)[C@H](CC(=O)O)NC(=O)[C@H](CC(C)C)NC(=O)[C@H](Cc1ccc(O)cc1)NC(=O)[C@H](CCCCN)NC(=O)[C@H](CO)NC(=O)[C@H](Cc1ccc(O)cc1)NC(=O)[C@H](CC(=O)O)NC(=O)[C@H](CO)NC(=O)[C@@H](NC(=O)[C@H](Cc1ccccc1)NC(=O)[C@@H](NC(=O)CNC(=O)[C@H](CCC(N)=O)NC(=O)C(C)(C)NC(=O)[C@@H](N)Cc1c[nH]cn1)[C@@H](C)O)[C@@H](C)O)C(C)C)C(=O)N[C@@H](CCC(=O)O)C(=O)NCC(=O)NCC(=O)N1CCC[C@H]1C(=O)N[C@@H](CO)C(=O)N[C@@H](CO)C(=O)NCC(N)=O
Cmax,ss (human, plasma; subcutaneous, 16 mg once weekly, week 20, geometric mean): 5430 ng/mL

CO[C@@H]1[C@H](OC(=O)N2CC(CCN3CCOCC3)C2)CC[C@]2(CO2)[C@H]1[C@@]1(C)O[C@@H]1CC=C(C)C
heart rate change (human; dose not given, day 28, multiple ascending dose; relative to: baseline): -0.2 ± 6.9 bpm

CCCCCCCCCCCCCCCC(=O)N[C@@H](CCC(=O)NCCCC[C@H](NC(=O)[C@H](C)NC(=O)[C@H](C)NC(=O)[C@H](CCC(N)=O)NC(=O)CNC(=O)[C@H](CCC(=O)O)NC(=O)[C@H](CC(C)C)NC(=O)[C@H](Cc1ccc(O)cc1)NC(=O)[C@H](CO)NC(=O)[C@H](CO)NC(=O)[C@@H](NC(=O)[C@H](CC(=O)O)NC(=O)[C@H](CO)NC(=O)[C@@H](NC(=O)[C@H](Cc1ccccc1)NC(=O)[C@@H](NC(=O)CNC(=O)[C@H](CCC(=O)O)NC(=O)[C@H](C)NC(=O)[C@@H](N)Cc1cnc[nH]1)[C@@H](C)O)[C@@H](C)O)C(C)C)C(=O)N[C@@H](CCC(=O)O)C(=O)N[C@@H](Cc1ccccc1)C(=O)N[C@H](C(=O)N[C@@H](C)C(=O)N[C@@H](Cc1c[nH]c2ccccc12)C(=O)N[C@@H](CC(C)C)C(=O)N[C@H](C(=O)N[C@@H](CCCNC(=N)N)C(=O)NCC(=O)N[C@@H](CCCNC(=N)N)C(=O)NCC(=O)O)C(C)C)[C@@H](C)CC)C(=O)O
serum inflammatory cytokines (item: TNF-α, IL-10, IL-1β, IL-6; C57BL/6N mice, high-fat diet-induced obese, serum; intraperitoneal, dose not given, 29 days; relative to: vehicle): no effect

N#Cc1ccc2c(c1)[C@H]1CCCN(C(=O)c3ccc4[nH]cnc4c3)[C@H]1C2
cortisol level change (human; 20 mg, day 15; relative to: baseline): -141 nmol/L

COc1cccc(OC)c1-c1cc(C(=O)NC2(C(=O)O)C3CC4CC(C3)CC2C4)nn1-c1ccc(C(=O)N(C)CCCN(C)CCCN(C)C(=O)CN2CCN(CC(=O)[O-])CCN(CC(=O)[O-])CCN(CC(=O)[O-])CC2)cc1C(C)C.[177Lu+3] (stereo not drawn)
tumour-to-small intestine ratio (mouse HT-29 xenograft; 24 h, biodistribution; relative to: tumour over small intestine): 43.3

O=C(c1cccnc1-c1ccncc1)N1CCC(O)(Cc2ccccc2)CC1
participants with serious adverse events (healthy Japanese adults; oral, dose not given): 0%

N[C@@H](CC(=O)O)C(=O)OC(C(=O)O)c1ccccc1[N+](=O)[O-].O=C(O)C(F)(F)F (mixture of isomers)
hydrolysis half-life, A isomer (1H NMR, dark; 50 mM sodium phosphate; concentration not given, pH 5.8, room temperature, 12.5% DMSO-d6): 13 ± 1 h

CS(=O)(=O)c1ccc(-c2nc3ccccc3n2CC(=O)N/N=C/c2ccc(Cl)cc2)cc1
ulcer number (rat, stomach; concentration not given, 4 h): 1

COc1ccnc(C(=O)N[C@H]2COC(=O)[C@H](Cc3ccccc3)[C@@H](O)[C@H](C)OC2=O)c1O
DT50 (aerobic dark soil incubation; sandy loam soil; 20 °C, modelling endpoint): 86.1 days

O=C(O)CCC(=O)O.[2H]C([2H])([2H])Oc1cc(C)c2[nH]ccc2c1CN1CC[C@@H](C2CC2)C[C@H]1c1ccc(C(=O)O)cc1
TEAE urine leukocyte positive (healthy Chinese subjects; 400 mg, single ascending dose): 0%

CNC(=O)c1cc(Cl)c(OC(C)(C)C(=O)O)cc1OC[C@@H](O)CN1CCC2(CC1)Cc1cc(Cl)ccc1O2
fraction unbound (equilibrium dialysis; rat, lung homogenate): 0.056

OC[C@H]1O[C@@H](c2ccc(F)c(Cc3cc4ccccc4s3)c2)[C@H](O)[C@@H](O)[C@@H]1O
hypoglycaemia-related adverse event (Japanese patients, type 1 diabetes; oral, 50 mg/day, onset day 12; relative to: patients): 4%

CN[C@@H](C)C(=O)N[C@H]1CN(S(=O)(=O)c2cccc(S(=O)(=O)N3CC[C@H]4CC[C@@H](C(=O)NC(c5ccccc5)c5ccccc5)N4C(=O)[C@@H](NC(=O)[C@H](C)NC)C3)c2)CC[C@H]2CC[C@@H](C(=O)NC(c3ccccc3)c3ccccc3)N2C1=O
AUC(0-t) (LC-MS/MS; human, advanced solid tumours, plasma; intravenous, 45 mg weekly, day 1): 938 ± 261 ng·h/mL

C=CCN1CC(=O)N2[C@@H](Cc3ccc(O)cc3F)C(=O)N(Cc3cccc(N4CC(N5CCN(CC)CC5)C4)n3)C[C@@H]2N1C(=O)NCc1ccccc1
treatment-related vomiting (advanced solid tumour patients; oral, 80 mg twice daily, grade ≥3, dose-escalation): 0%

CCOc1c([C@H](C)n2nc(C)c3c(N)ncnc32)cc(Cl)c(F)c1[C@@H]1CNC(=O)C1
Cmax (patients, monotherapy; oral, 20 mg once daily, cycle 1 day 1): 1270 ± 655 nM

Repeated from above:
CS(=O)(=O)c1ccc(-c2nc3ccccc3n2CC(=O)N/N=C/c2ccc(Cl)cc2)cc1
ulcer number (rat, stomach; concentration not given, 4 h): 1

O=C(O)CCC(=O)O.[2H]C([2H])([2H])Oc1cc(C)c2[nH]ccc2c1CN1CC[C@@H](C2CC2)C[C@H]1c1ccc(C(=O)O)cc1
TEAE urine leukocyte positive (healthy Chinese subjects; 400 mg, single ascending dose): 0%

CC(C)C[C@H](NC(=O)[C@H](CC(C)C)NC(=O)[C@H](Cc1c[nH]c2ccccc12)NC(=O)[C@H](CCC(=O)O)NC(=O)[C@@H](NC(=O)[C@H](Cc1ccccc1)NC(=O)[C@H](CCC(=O)O)NC(=O)[C@H](CCCCNC(=O)COCCOCCNC(=O)COCCOCCNC(=O)CC[C@H](NC(=O)CCCCCCCCCCCCCCCCCCC(=O)O)C(=O)O)NC(=O)[C@H](C)NC(=O)[C@H](CCCCN)NC(=O)[C@H](CCCCN)NC(=O)[C@H](CCC(=O)O)NC(=O)[C@H](CC(=O)O)NC(=O)[C@H](CC(C)C)NC(=O)[C@H](Cc1ccc(O)cc1)NC(=O)[C@H](CCCCN)NC(=O)[C@H](CO)NC(=O)[C@H](Cc1ccc(O)cc1)NC(=O)[C@H](CC(=O)O)NC(=O)[C@H](CO)NC(=O)[C@@H](NC(=O)[C@H](Cc1ccccc1)NC(=O)[C@@H](NC(=O)CNC(=O)[C@H](CCC(N)=O)NC(=O)C(C)(C)NC(=O)[C@@H](N)Cc1c[nH]cn1)[C@@H](C)O)[C@@H](C)O)C(C)C)C(=O)N[C@@H](CCC(=O)O)C(=O)NCC(=O)NCC(=O)N1CCC[C@H]1C(=O)N[C@@H](CO)C(=O)N[C@@H](CO)C(=O)NCC(N)=O
Cmax,ss (human, plasma; subcutaneous, 16 mg once weekly, week 20, geometric mean): 5430 ng/mL
